Experimental data collected from several papers.
A part holds a random share of what one study measured.

Study 1
Target: Bromodomain-containing protein 4, BD1 (BRD4, Homo sapiens, UniProt O60885)
Observed: acetyl-histone H4 peptide binding
Method: AlphaScreen displacement
Tested at: 50 µM
| Structure (SMILES) | inhibition |
| --- | --- |
| O=C1NC(=O)N(c2ccccc2)C(=O)C1=CNc1ccc(F)cc1 | 3.85% |
| Nc1ncnc2c1ncn2[C@@H]1O[C@H](COP(=O)(O)CP(=O)(O)O)[C@@H](O)[C@H]1O | 2.65% |
| COc1ccc(NC=C2C(=O)NC(=O)N(c3ccc(C)cc3)C2=O)cc1 | 13.1% |

Study 2
Cell line: L929
Observed: necroptosis protection
Method: CCK-8
Tested at: 1.25 µM
Together with: TNF-α plus zVAD
| SMILES | viability |
| --- | --- |
| CC[C@H](C)c1nc2cc(Nc3ccnc4ccc(S(=O)(=O)C(C)C)cc34)ccc2s1 | 36.8% |
| CC(C)S(=O)(=O)c1ccc2nccc(Nc3ccc4scnc4c3)c2c1 | 34.7% |
| CC(C)S(=O)(=O)c1cc2c(Nc3ccc4sc(C5CCCC5)nc4c3)ccnc2cc1OCCO | 103% |

Further values, each from its own experiment
Tested at: 10 µM
| SMILES | tested on | test | setting | how to read | measurement | value |
| --- | --- | --- | --- | --- | --- | --- |
| NC(=O)OCCCc1ccccc1 | Sarcocystis neurona | parasite growth | 96 h, first screen | reference: untreated | log2 fold change | 0.37 |
| Cc1sc2c(c1C)C(c1ccc(Cl)cc1)=N[C@@H](CC(=O)OC(C)(C)C)c1nnc(C)n1-2 | mouse MPNST tumor cells | high-content nuclear imaging, item: cell number | 12 h, mean of 2 replicates | reference: plate mean, higher = more cells | nuclei count | -1.99 z-score |
| O=C1Nc2ccc(Cl)cc2C(c2ccccc2Cl)=NC1O (stereo not drawn) | Sarcocystis neurona | parasite growth | 96 h, first screen | reference: untreated | log2 fold change | 0.51 |

For quick reference, copied from above (study 2):
| SMILES | viability |
| --- | --- |
| CC(C)S(=O)(=O)c1ccc2nccc(Nc3ccc4scnc4c3)c2c1 | 34.7% |
